{"data": "Measured values gathered from unrelated publications", "note": "Lines come from different studies, so protocols differ. ± gives the spread as reported."}
{"Structure (SMILES)": "CCNc1cc2[o+]c3cc(NCC)c(C)cc3c(-c3ccccc3C(=O)OCCOCC[18F])c2cc1C", "test system": "rat, lung", "conditions": "15 min", "endpoint": "tissue uptake", "result": "1.08 ± 0.34 %ID/g"}
{"Structure (SMILES)": "COc1cc2c3c(c4cc(OC)c(OC)cc4c2cc1OC)C(=O)N1CCCC1C3 (centres unmarked)", "test system": "swine cells", "conditions": "24 (unit not given)", "endpoint": "CC50", "result": "> 100 µM"}
{"Structure (SMILES)": "[2H]C([2H])([2H])C([2H])([2H])C([2H])([2H])OC(C(=O)OC1CCNCC1)(c1ccccc1)c1ccccc1", "assay": "refers to: diarrhea", "test system": "healthy Japanese male", "conditions": "oral, 18 mg, 16 days, multiple ascending dose", "endpoint": "adverse events", "result": "57.1%"}
{"Structure (SMILES)": "O=c1cc(-c2ccccc2)oc2c(Br)c(O)c(O)c(O)c12", "test system": "C57BL/6 mouse, plasma", "conditions": "oral, 50 mg/kg, single dose", "endpoint": "half-life", "result": "4.6 h"}
{"Structure (SMILES)": "O=C(c1ccc(F)cc1)C1CCN(C2Cc3c(cccc3OCC[18F])CC2O)CC1 (single isomer, unassigned; (-))", "test system": "rat, brain", "conditions": "30 min", "endpoint": "tracer uptake", "result": "0.324 %ID/g"}
{"Structure (SMILES)": "CCCCCCCCCCCCC(=O)O.O=C1CCCC2C3CCCN4CCCC(CN12)C34 (centres unmarked)", "test system": "water", "conditions": "concentration not given, 293.15 K", "endpoint": "critical aggregation concentration", "result": "0.00095 mol/kg"}
{"Structure (SMILES)": "CC[C@H](C)[C@H](NC(=O)[C@H](C)NC(=O)[C@H](CCCNC(=N)N)NC(=O)CNC(=O)CNC(=O)[C@H](CCCNC(=N)N)NC(=O)[C@H](CCCNC(=N)N)NC(=O)[C@H](CCCNC(=N)N)NC(=O)[C@H](CCC(N)=O)NC(=O)[C@H](CCCNC(=N)N)NC(=O)[C@H](CCCNC(=N)N)NC(=O)[C@H](CCCCN)NC(=O)[C@H](CCCCN)NC(=O)[C@H](CCCNC(=N)N)NC(=O)CNC(=O)[C@@H](N)Cc1ccc(O)cc1)C(=O)N[C@H](C(=O)N[C@H](C(=O)N[C@@H](CC(C)C)C(=O)N[C@@H](CC(=O)O)C(=O)N[C@H](C(=O)N[C@@H](CCC(=O)O)C(=O)N[C@@H](CCCCN)C(=O)N[C@@H](CO)C(=O)O)[C@@H](C)O)[C@@H](C)CC)[C@@H](C)O", "test system": "rat, TRPV1 knockout, myocardial infarction", "conditions": "dose not given, 15 min ischemia", "endpoint": "rectal body temperature", "result": "37.1 ± 0.1 °C"}
{"Structure (SMILES)": "COc1ccc(NC(=O)Cn2c(=O)c3ccccc3n(CC(=O)Nc3cc([125I])c(OC)cc3OC)c2=O)cc1", "test system": "rat, muscle", "conditions": "intravenous, 5 min", "endpoint": "tracer uptake", "result": "0.12 %ID/g"}
{"Structure (SMILES)": "Cc1ccc(/C=C/C(=O)O)cc1-c1cc2c(cc1C)C(C)(C)CCC2(C)C", "test system": "Sprague-Dawley rat, male", "conditions": "oral, 100 mg/kg, 24 h, sesame oil vehicle", "endpoint": "blood cholesterol", "result": "50 ± 11 mg/dL"}
{"Structure (SMILES)": "CN(C)C(CNC(=O)Nc1cc(C(F)(F)F)ccc1N1CCOCC1)c1ccncc1 (centres unmarked)", "test system": "mouse, serum", "conditions": "intraperitoneal, 120 mg/kg single dose", "endpoint": "serum calcium", "result": "8.6 mg/dL"}
{"Structure (SMILES)": "COc1cc(NC(=O)C(=O)c2c(C)n(Cc3ccc(Cl)cc3)c3ccc(C)cc23)ccn1", "test system": "male cynomolgus monkey, plasma", "conditions": "intravenous, 1 mg/kg", "endpoint": "AUC(0-inf)", "result": "2180 ng·h/mL"}
{"note": "Excerpt of the above:"}
{"Structure (SMILES)": "CN(C)C(CNC(=O)Nc1cc(C(F)(F)F)ccc1N1CCOCC1)c1ccncc1 (centres unmarked)", "test system": "mouse, serum", "conditions": "intraperitoneal, 120 mg/kg single dose", "endpoint": "serum calcium", "result": "8.6 mg/dL"}
